Experimental data from different studies.
Each numbered part is a random draw from the data of one study; scales do not carry over between parts. Values joined by “and” are separate records of one study, mostly repeats; a detail may differ.
Sequence of UniProt Q5XXA6 (whole entry, unmodified, looked up): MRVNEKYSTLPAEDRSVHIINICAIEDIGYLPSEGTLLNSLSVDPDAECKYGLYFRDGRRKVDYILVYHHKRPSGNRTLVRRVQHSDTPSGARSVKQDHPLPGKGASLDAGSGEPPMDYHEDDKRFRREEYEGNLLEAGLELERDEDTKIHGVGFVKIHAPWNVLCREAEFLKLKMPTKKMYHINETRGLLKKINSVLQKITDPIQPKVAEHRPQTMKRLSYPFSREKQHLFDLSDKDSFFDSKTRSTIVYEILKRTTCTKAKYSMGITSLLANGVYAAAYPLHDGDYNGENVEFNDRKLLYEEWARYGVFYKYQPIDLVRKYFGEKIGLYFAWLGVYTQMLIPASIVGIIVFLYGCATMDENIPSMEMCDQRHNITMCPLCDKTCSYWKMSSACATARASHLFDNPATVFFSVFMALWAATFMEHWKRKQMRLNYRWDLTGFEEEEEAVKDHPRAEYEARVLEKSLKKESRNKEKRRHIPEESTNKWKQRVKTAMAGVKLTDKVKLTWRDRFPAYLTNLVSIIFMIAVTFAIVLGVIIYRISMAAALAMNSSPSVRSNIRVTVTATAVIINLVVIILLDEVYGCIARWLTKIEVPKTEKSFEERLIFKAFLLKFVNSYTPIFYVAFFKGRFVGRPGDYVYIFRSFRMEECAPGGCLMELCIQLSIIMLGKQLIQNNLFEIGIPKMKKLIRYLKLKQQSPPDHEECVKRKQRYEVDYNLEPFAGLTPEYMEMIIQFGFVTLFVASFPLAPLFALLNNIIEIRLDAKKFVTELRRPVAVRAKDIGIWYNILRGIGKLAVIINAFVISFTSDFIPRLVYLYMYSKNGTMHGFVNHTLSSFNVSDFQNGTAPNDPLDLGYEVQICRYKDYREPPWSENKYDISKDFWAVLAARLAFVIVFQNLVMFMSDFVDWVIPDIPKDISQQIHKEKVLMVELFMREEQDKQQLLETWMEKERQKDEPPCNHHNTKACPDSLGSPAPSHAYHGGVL
Sequence of UniProt P15056 (whole entry, unmodified, looked up): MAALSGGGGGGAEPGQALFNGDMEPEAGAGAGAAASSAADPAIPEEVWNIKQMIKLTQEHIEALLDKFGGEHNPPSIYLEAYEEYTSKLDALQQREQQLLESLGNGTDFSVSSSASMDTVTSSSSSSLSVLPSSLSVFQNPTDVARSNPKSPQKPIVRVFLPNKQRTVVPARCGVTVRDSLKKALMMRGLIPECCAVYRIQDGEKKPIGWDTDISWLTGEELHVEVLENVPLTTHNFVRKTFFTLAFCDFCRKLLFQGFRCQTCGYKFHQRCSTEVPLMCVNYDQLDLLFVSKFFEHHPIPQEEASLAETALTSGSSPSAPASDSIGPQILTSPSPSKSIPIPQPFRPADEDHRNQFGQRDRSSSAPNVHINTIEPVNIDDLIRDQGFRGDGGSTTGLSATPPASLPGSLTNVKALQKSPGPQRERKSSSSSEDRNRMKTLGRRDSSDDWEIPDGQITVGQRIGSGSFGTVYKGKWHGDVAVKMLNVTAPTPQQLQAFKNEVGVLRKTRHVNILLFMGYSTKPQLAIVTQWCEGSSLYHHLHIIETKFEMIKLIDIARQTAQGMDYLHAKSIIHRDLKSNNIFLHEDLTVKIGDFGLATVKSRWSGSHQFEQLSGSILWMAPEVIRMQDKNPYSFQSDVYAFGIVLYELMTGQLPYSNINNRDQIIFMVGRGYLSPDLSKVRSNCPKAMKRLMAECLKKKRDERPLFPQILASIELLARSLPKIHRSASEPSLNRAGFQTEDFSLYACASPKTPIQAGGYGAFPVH
Sequence of UniProt Q8IVH8 (whole entry, looked up): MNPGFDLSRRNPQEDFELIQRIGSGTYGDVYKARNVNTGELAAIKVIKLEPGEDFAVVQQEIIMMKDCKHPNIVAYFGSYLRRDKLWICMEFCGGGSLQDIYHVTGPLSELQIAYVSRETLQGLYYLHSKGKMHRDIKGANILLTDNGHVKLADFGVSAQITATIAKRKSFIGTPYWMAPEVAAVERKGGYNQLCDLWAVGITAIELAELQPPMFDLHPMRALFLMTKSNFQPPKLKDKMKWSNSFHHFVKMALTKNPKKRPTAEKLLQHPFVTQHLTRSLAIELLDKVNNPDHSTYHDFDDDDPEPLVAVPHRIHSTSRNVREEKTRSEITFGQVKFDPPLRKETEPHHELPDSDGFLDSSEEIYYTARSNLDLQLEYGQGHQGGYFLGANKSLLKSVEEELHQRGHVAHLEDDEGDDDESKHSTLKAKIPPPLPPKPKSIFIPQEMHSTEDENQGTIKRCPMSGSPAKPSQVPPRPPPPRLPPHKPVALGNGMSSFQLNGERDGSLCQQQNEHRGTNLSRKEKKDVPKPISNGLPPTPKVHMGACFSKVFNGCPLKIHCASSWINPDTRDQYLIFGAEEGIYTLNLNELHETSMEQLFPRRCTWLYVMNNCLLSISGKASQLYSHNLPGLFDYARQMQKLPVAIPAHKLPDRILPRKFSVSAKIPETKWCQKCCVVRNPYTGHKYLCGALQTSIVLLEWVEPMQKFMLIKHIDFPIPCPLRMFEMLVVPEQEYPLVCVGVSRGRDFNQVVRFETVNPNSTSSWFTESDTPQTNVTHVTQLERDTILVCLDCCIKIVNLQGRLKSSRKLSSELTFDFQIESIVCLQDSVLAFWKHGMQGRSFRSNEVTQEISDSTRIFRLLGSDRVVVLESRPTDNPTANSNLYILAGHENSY
Sequence of UniProt P00519 (whole entry, unmodified, looked up): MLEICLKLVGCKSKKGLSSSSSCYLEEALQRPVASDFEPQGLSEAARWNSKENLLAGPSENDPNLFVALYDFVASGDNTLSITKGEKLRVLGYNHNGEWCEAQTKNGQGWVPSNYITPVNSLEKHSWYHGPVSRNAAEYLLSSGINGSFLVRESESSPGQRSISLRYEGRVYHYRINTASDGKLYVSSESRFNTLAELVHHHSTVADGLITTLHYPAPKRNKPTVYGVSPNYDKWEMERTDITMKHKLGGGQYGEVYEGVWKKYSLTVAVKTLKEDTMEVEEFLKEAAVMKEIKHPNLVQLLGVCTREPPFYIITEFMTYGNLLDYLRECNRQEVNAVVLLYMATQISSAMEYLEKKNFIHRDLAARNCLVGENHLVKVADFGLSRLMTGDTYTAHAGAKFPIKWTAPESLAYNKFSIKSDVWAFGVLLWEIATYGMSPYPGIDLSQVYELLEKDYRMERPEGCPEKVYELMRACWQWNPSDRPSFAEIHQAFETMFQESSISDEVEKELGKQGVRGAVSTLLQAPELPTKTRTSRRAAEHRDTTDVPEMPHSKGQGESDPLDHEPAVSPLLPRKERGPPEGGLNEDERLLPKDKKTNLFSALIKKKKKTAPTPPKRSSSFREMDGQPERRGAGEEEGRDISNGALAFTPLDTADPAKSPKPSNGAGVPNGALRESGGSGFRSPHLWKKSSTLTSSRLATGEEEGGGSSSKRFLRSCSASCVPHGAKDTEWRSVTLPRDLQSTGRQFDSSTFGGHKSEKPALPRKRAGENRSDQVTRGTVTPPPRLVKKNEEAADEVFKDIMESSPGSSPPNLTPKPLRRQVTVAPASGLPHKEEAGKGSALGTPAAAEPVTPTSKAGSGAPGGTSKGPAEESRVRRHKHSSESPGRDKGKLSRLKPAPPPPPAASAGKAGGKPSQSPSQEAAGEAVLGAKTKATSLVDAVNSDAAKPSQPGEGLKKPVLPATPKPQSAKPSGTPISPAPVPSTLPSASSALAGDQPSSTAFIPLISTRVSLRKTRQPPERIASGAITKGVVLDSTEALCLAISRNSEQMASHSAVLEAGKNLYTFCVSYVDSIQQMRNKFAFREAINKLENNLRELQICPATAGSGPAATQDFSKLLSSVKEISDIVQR
Sequence of UniProt P50613 (whole entry, looked up): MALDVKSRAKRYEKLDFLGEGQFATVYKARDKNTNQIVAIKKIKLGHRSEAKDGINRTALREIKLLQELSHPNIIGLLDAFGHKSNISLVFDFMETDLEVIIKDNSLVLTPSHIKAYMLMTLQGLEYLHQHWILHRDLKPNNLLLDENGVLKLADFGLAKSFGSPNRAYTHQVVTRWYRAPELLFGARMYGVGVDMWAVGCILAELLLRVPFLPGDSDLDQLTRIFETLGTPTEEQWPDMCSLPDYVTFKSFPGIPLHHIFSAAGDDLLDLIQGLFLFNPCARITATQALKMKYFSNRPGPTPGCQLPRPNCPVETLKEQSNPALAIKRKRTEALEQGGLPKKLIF
Sequence of UniProt Q00535 (whole entry, looked up): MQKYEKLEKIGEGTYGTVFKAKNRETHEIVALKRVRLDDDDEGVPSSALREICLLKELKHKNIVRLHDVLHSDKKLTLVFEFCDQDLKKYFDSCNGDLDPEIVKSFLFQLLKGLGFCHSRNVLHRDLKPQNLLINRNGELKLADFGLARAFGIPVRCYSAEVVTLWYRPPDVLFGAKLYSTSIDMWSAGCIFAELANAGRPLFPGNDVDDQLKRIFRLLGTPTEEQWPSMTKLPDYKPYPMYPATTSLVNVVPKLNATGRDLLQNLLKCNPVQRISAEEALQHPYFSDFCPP

Set 1 — mode: antagonist; quantity: IC50
Target: Beta-1 adrenergic receptor (ADRB1, Homo sapiens, UniProt P08588)
Sequence of UniProt P08588 (whole entry, looked up): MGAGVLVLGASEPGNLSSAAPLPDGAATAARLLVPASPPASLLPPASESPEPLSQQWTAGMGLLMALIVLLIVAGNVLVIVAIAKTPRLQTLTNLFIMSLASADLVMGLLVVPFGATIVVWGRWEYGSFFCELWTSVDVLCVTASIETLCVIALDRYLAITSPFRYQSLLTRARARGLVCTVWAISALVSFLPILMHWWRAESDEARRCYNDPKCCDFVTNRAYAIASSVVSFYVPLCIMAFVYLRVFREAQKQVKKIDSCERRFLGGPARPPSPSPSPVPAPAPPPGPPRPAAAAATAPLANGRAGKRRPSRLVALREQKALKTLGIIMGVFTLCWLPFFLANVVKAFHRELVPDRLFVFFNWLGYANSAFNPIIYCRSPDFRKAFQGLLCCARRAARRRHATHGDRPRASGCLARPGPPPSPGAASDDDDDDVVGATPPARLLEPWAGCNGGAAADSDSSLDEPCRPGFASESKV
SMILES = Cc1cc(-c2cc(C)c3ccccc3n2)c(C)o1; value = ≥ 100 µM
SMILES = N#Cc1ccc(C(O)CN2CC=C(C3=NNC(=O)CC3)CC2)cc1 (stereo not shown); value = ≥ 100 µM
SMILES = CC(C)c1ccc(C(=O)N2CC(CNC(=O)C3CCOCC3)C3(C2)CN(c2ccccc2)C3)cc1 (stereo not shown); value = ≥ 100 µM

Set 2 — tested at: 1 µM; quantity: remaining binding
Structure (SMILES): C[C@H](NC(=O)c1cnc2n1[C@](C)(Cc1ccc(C#N)cc1)C(=O)N2c1cc(Cl)c(F)c(Cl)c1)C(=O)NC1(c2ccccn2)CC1
target = CSNK1G1 (Homo sapiens, UniProt Q9HCP0); read-out = cell-free assay; technique = competition with immobilised ligand; value = 99%
target = CDK5 (Homo sapiens, UniProt Q00535); read-out = cell-free assay; technique = competition with immobilised ligand; value = 100%
target = PTK6 (Homo sapiens, UniProt Q13882); read-out = cell-free assay; technique = competition with immobilised ligand; value = 92%
target = MATK (Homo sapiens, UniProt P42679); read-out = cell-free assay; technique = competition with immobilised ligand; value = 100%
target = MAP4K3 (Homo sapiens, UniProt Q8IVH8); read-out = cell-free assay; technique = competition with immobilised ligand; value = 100%
target = BRAF (Homo sapiens, UniProt P15056, V600E); read-out = cell-free assay; technique = competition with immobilised ligand; value = 100%
target = Tyrosine-protein kinase ABL1, phosphorylated (ABL1, Homo sapiens, UniProt P00519, F317I); read-out = binding; value = 78%
target = CHEK1 (Homo sapiens, UniProt O14757); read-out = cell-free assay; technique = competition with immobilised ligand; value = 100%
target = PNCK (Homo sapiens, UniProt Q6P2M8); read-out = cell-free assay; technique = competition with immobilised ligand; value = 83%
target = EPHA2 (Homo sapiens, UniProt P29317); read-out = cell-free assay; technique = competition with immobilised ligand; value = 75%
target = MAPK4 (Homo sapiens, UniProt P31152); read-out = cell-free assay; technique = competition with immobilised ligand; value = 100%
target = CDK11B (Homo sapiens, UniProt P21127); read-out = cell-free assay; technique = competition with immobilised ligand; value = 100%
target = PAK5 (Homo sapiens, UniProt Q9P286); read-out = cell-free assay; technique = competition with immobilised ligand; value = 100%
target = CSF1R (Homo sapiens, UniProt P07333); read-out = cell-free assay; technique = competition with immobilised ligand; value = 100%
target = PTK2 (Homo sapiens, UniProt Q05397); read-out = cell-free assay; technique = competition with immobilised ligand; value = 100%
target = CDK7 (Homo sapiens, UniProt P50613); read-out = cell-free assay; technique = competition with immobilised ligand; value = 94%
target = LATS1 (Homo sapiens, UniProt O95835); read-out = cell-free assay; technique = competition with immobilised ligand; value = 100%
target = Ribosomal protein S6 kinase alpha-5, C-terminal kinase domain (RPS6KA5, Homo sapiens, UniProt O75582); read-out = cell-free assay; technique = competition with immobilised ligand; value = 100%
target = BUB1 (Homo sapiens, UniProt O43683); read-out = cell-free assay; technique = competition with immobilised ligand; value = 100%
target = BRAF (Homo sapiens, UniProt P15056); read-out = cell-free assay; technique = competition with immobilised ligand; value = 100%

Set 3 — SMILES: C=CCc1ccc(O)c(-c2ccc(O)c(CC=C)c2)c1; read-out: chloride current; technique: whole-cell voltage clamp; quantity: IC50
target = Anoctamin-1 (ANO1, Homo sapiens, UniProt Q5XXA6, del476-501/F646A); setting = membrane voltage -100 mV; value = 7.11 µM
target = Anoctamin-1 (ANO1, Homo sapiens, UniProt Q5XXA6, del476-501/F807Y); mode = inhibitor; tested at = 20 mV holding voltage; value = 9.52 µM
target = Anoctamin-1 (ANO1, Homo sapiens, UniProt Q5XXA6, del476-501/F628W); mode = inhibitor; tested at = 60 mV holding voltage; value = 12.9 µM
target = Anoctamin-1 (ANO1, Homo sapiens, UniProt Q5XXA6, del476-501/R561A); setting = membrane voltage 80 mV; value = 6.71 µM

Set 4 — host: human; sample: microsomes or S9; tested at: 2 µM; time: 0.5 h; quantity: remaining compound
SMILES = O=C(O)CC1NC(=O)N(c2ccc(Cl)cc2)C1=O (stereo not shown); value = 81.8%
SMILES = COC(=O)c1nc(C2CC(C(C)(C)C)=NO2)cc(NC(C)=O)c1Cl (stereo not shown); value = 26.7%
SMILES = CC1CCN(c2ccc(-c3noc(C(=O)NCCc4nc5ccccc5[nH]4)n3)cc2)CC1; value = 70.5%

Set 5 — technique: protein-binding microarray; form: hairpin DNA; sample: in vitro; tested at: not given; relative to: not given; direction: higher = stronger binding; quantity: median fluorescence
Target: Runt-related transcription factor 3, Runt domain (RUNX3, Homo sapiens, UniProt Q13761, residues 53-186)
Sequence of UniProt Q13761 (53-186, looked up): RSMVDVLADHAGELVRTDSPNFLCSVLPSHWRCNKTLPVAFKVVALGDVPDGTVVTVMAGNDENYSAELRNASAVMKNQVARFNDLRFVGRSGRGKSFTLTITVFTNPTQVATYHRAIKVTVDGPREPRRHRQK
Setting: whole hairpin DNA, median over replicate spots
Sequence = GAGGCCTGTTTTGGTTGGCCTCCTGGCCAACCAAAACAGGCCTCACACTC; value = 4280 a.u.
Sequence = GAGGCCTGTTGTGGCGGGCCTCCTGGCCCGCCACAACAGGCCTCACACTC (5mC at 15); value = 5240 a.u.
Sequence = GAGGCCTGTTGCGGTCGGCCTCCTGGCCGACCGCAACAGGCCTCACACTC (5mC at 16 28); value = 9440 a.u.
Sequence = GAGGCCTATCGCGGTTGGCCTCCTGGCCAACCGCGATAGGCCTCACACTC; value = 5330 a.u.
Sequence = GAGGCCTGTTGCGGGTGGCCTCCTGGCCACCCGCAACAGGCCTCACACTC (5mC at 30); value = 5890 a.u.
Sequence = GAGGCCCGACCGCAACAGCCTCCTGGCTGTTGCGGTCGGGCCTCACACTC (5mC at 37); value = 7180 a.u.
Sequence = GAGGCCTGTTACGGTTGGCCTCCTGGCCAACCGTAACAGGCCTCACACTC; value = 4360 a.u.
Sequence = GGGGCCTGTCGCGGTTGGCCTCCTGGCCAACCGCGACAGGCCCCACACTC (5mC at 43); value = 6310 a.u.

Set 6 — technique: PI flow cytometry; time: 24 h; quantity: S phase cells
SMILES: CC(C)C[C@@H]1NC(=O)[C@@H](N(C)C(=O)[C@H](CC2CCC2)NC(=O)[C@@H]2C[C@@H](F)CN2C(=O)C2(C(F)(F)F)CC(F)(F)C2)CCCCNC(=O)C2(CC2)NC(=O)[C@H](Cc2cc(Cl)ccc2Cl)N(C)C1=O
cell line = NCI-H1299; tested at = 2000 nM; value = 20.4% and 17.6% and 18.3%
cell line = NCI-H82; tested at = 200 nM; value = 36.6% and 30.7%
cell line = NCI-H1299; tested at = 200 nM; value = 20.1% and 17.4% and 15%

Other studies, line by line
Substance = SNRPC (Homo sapiens, UniProt P09234); tested on = SNRPD3 (Homo sapiens, UniProt P62318); test = cross-linking MS; test system = cells; setting = with: BSPNO; quantity = cross-linked residues; value = K52 to K78
Substance = COc1ccc(-c2c(Nc3ccccn3)[nH]c3c(C4=CCCCC4)c(-c4ccccc4)nn3c2=O)cc1; test system = human patients, plasma; setting = oral, 150 mg once daily, day 15, cycle 1, tau 24 h; quantity = AUC(0-tau) geometric mean; value = 93600 ng·h/mL
